Experimental data collected from several papers.
Numbered parts are unrelated; each lists some results of a single study. Substitutions count along the parent as printed.
Sequence of UniProt P78368 (whole entry, looked up): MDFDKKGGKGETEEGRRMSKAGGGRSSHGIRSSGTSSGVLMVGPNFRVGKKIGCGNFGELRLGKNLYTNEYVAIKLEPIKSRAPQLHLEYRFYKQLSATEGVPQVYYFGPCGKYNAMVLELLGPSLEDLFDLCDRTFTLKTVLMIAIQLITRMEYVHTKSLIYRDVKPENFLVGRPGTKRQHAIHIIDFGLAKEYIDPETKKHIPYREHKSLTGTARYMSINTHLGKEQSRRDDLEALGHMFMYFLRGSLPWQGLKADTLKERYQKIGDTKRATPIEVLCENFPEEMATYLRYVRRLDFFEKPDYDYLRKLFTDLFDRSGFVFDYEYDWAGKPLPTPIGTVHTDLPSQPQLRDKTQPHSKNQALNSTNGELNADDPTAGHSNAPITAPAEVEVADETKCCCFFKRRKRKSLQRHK
Sequence of UniProt P21127 (whole entry, looked up): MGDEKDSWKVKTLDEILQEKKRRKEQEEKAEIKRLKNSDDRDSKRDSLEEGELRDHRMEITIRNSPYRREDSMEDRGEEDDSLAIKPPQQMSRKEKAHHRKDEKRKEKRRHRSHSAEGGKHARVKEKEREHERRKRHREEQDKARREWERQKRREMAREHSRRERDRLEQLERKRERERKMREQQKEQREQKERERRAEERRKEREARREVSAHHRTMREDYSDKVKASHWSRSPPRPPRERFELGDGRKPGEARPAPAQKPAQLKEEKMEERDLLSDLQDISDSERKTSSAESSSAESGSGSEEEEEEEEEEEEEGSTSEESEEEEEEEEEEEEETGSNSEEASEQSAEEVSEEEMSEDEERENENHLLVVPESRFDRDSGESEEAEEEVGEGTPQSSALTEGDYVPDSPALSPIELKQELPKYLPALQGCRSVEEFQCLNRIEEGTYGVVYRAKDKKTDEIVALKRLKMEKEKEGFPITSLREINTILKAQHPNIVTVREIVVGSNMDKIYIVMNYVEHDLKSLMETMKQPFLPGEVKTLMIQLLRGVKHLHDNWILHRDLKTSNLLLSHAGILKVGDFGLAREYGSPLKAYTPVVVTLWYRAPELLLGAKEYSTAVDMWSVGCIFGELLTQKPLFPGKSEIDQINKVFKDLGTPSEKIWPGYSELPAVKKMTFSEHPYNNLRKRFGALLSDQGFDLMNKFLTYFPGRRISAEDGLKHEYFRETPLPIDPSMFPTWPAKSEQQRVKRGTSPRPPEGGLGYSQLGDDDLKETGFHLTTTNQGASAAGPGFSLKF
Sequence of UniProt Q9UIK4 (whole entry, looked up): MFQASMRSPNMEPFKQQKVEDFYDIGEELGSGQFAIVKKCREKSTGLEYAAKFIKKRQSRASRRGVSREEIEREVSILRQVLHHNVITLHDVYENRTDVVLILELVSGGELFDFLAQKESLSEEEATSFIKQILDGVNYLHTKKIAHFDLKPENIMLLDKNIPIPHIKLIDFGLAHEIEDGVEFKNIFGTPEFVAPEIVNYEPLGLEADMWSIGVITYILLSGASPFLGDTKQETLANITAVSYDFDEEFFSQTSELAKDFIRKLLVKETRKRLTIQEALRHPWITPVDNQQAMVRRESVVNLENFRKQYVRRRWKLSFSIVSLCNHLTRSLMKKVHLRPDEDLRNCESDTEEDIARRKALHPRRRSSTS
Sequence of UniProt P10721 (whole entry, unmodified, looked up): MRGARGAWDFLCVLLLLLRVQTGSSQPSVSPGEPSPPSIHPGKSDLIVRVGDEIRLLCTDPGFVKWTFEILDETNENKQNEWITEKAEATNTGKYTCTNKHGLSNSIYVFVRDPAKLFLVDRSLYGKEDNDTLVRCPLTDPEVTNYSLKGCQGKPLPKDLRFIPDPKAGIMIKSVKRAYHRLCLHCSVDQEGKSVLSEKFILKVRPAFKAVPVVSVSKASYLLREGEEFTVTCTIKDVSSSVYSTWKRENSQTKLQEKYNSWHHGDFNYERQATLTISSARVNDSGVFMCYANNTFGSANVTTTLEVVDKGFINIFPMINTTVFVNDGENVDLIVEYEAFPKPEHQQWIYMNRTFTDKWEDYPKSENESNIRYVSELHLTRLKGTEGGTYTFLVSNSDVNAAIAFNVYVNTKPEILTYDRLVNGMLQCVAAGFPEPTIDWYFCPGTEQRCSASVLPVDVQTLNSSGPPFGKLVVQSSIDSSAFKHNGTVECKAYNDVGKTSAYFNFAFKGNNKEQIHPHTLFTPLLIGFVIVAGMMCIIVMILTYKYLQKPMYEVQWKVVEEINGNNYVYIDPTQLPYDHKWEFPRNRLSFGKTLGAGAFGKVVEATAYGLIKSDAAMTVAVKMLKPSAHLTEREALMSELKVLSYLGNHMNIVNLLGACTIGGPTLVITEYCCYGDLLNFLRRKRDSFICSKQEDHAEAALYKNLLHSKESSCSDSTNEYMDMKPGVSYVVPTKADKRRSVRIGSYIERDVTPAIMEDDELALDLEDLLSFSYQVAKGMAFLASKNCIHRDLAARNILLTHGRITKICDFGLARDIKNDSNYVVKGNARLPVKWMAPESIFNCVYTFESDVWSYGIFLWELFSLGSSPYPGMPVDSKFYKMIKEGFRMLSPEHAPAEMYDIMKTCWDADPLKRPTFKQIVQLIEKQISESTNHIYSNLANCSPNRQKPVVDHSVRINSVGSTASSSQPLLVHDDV
Sequence of UniProt Q8N568 (whole entry, looked up): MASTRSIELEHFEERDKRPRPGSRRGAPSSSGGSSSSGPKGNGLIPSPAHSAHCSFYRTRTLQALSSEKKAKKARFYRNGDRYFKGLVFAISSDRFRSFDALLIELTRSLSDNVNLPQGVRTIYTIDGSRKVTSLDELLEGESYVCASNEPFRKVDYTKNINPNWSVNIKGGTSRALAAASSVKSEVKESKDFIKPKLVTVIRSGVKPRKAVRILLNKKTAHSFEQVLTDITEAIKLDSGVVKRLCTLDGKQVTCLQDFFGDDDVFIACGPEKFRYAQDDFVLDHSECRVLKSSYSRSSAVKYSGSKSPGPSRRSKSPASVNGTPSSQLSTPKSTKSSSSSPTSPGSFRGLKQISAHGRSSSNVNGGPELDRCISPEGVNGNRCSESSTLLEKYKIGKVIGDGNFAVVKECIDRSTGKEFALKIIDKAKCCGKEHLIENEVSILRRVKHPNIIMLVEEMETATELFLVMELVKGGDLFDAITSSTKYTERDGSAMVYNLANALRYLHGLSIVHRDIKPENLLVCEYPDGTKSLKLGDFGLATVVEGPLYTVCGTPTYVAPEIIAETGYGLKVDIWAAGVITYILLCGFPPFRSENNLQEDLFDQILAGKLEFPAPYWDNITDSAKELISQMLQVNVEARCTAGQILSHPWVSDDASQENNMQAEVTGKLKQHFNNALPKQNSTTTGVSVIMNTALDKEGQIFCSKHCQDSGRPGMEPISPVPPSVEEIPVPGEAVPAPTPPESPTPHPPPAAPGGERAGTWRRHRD
Sequence of UniProt P21709 (whole entry, looked up): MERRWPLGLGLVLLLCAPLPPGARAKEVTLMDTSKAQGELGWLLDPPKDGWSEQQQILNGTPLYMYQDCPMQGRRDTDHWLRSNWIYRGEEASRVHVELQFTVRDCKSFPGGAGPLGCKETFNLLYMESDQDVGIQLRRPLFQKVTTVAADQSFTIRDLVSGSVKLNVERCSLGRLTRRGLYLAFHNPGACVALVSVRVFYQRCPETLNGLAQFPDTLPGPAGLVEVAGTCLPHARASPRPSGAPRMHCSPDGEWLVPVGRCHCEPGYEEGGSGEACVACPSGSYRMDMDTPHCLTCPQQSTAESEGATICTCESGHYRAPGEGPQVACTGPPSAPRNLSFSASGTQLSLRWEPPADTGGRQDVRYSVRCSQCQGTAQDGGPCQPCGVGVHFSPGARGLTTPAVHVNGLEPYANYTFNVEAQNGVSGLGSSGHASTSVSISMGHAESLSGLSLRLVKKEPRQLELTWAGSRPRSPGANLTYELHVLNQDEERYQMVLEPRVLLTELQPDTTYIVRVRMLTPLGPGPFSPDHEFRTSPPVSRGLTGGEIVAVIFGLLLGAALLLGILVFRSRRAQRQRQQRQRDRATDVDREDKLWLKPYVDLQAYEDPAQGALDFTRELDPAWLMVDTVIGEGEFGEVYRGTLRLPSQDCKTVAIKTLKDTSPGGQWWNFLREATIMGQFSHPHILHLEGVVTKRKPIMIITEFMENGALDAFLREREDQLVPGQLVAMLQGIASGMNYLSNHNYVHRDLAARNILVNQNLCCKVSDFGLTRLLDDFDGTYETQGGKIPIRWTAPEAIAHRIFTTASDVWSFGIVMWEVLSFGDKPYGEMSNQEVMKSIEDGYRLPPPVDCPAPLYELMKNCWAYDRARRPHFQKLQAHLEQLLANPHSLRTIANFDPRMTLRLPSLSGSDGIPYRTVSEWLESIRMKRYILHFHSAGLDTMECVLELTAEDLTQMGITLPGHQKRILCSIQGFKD
Sequence of UniProt O14757 (whole entry, looked up): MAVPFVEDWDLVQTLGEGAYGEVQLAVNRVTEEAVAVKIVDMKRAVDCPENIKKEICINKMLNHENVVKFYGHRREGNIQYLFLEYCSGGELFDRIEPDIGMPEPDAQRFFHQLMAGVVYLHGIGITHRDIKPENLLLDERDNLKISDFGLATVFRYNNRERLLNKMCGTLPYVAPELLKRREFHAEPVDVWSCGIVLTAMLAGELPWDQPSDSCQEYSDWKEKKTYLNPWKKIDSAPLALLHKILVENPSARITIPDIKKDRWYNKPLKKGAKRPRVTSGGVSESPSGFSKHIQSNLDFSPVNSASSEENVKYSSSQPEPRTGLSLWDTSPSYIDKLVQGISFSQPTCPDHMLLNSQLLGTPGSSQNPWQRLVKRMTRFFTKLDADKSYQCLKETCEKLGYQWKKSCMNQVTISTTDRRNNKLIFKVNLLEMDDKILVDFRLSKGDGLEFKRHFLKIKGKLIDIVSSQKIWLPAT

Study 1
Change: A84T
Target: ABI1, truncated, D143A, DHFR fusion (Arabidopsis thaliana)
Technique: DHFR PCA, deep sequencing
Matrix: yeast
Notes: methotrexate growth selection, single substitutions
Reference: wild-type fitted maximum
Direction: higher = stronger binding
Starting sequence: PYL1, truncated, DHFR fusion (Arabidopsis thaliana); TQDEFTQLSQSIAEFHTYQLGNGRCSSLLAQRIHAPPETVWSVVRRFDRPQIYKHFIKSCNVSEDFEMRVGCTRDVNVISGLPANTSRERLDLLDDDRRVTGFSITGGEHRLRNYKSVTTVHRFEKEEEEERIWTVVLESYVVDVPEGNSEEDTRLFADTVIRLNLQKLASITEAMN
| conditions | relative binding score |
| --- | --- |
| together with: (+)-ABA 0.39 µM | 23.5% |
| together with: (+)-ABA 0.032 µM | 16.8% |
| together with: (+)-ABA 58 µM | 14.1% |
| together with: (+)-ABA 1.4 µM | 11.9% |
| together with: (+)-ABA 710 µM | 46.9% |
| together with: (+)-ABA 2500 µM | 56.1% |

Study 2
SMILES: CCC(=N\O)/C(C)=C/c1ccc(F)cc1
Read-out: cell-free assay
Technique: competition with immobilised ligand
Concentration: 1 µM
| target | remaining binding |
| --- | --- |
| Ephrin type-A receptor 1 (EPHA1, Homo sapiens, UniProt P21709) | 82% |
| Death-associated protein kinase 2 (DAPK2, Homo sapiens, UniProt Q9UIK4) | 97% |
| Casein kinase II subunit alpha (CSNK2A1, Homo sapiens, UniProt P68400) | 74% |
| Mast/stem cell growth factor receptor Kit (KIT, Homo sapiens, UniProt P10721, D816H) | 65% |
| Discoidin domain-containing receptor 2 (DDR2, Homo sapiens, UniProt Q16832) | 91% |
| Serine/threonine-protein kinase DCLK2 (DCLK2, Homo sapiens, UniProt Q8N568) | 96% |
| Serine/threonine-protein kinase Chk1 (CHEK1, Homo sapiens, UniProt O14757) | 83% |
| Tyrosine-protein kinase ABL1, phosphorylated (ABL1, Homo sapiens, UniProt P00519, Y253F) | 80% |
| Serine/threonine-protein kinase PAK 1 (PAK1, Homo sapiens, UniProt Q13153) | 88% |
| Casein kinase I isoform gamma-2 (CSNK1G2, Homo sapiens, UniProt P78368) | 87% |
| Macrophage colony-stimulating factor 1 receptor (CSF1R, Homo sapiens, UniProt P07333) | 91% |
| Cyclin-dependent kinase 11B (CDK11B, Homo sapiens, UniProt P21127) | 89% |
| Serine/threonine-protein kinase PRP4 homolog (PRPF4B, Homo sapiens, UniProt Q13523) | 100% |

Study 3
Target: RNA binding protein fox-1 homolog 2, RRM domain, GST-SBP tag (RBFOX2, Homo sapiens, UniProt O43251-10, residues 100-194)
Technique: RNA Bind-n-Seq
Form: RNA
Matrix: in vitro
Concentration: 365 nM
Notes: natural RNA segment, single round, ends assumed
Reference: no-protein control
Direction: higher = stronger binding
Residues (chain): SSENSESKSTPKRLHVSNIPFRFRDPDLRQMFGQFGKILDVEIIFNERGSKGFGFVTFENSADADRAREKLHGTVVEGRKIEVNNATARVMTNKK
| Sequence | RBNS enrichment (R) |
| --- | --- |
| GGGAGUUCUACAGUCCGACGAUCAUCUCAGGGCCUGUCUUGUCCCCUUCUCGGAGGGCCAGAGAAAAGAUGUGGGAAGGAUAUAGCUCGGGGCUUAGUGAGGAAGAUGGACACCCAUGGUUCAAAGUCUGGUGUGGAAUUCUCGGGUGCCAA | 1.29 |
| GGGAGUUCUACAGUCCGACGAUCAGAGGAUGUGGCUUUGCAACUCAGAUCAGACAAAGAAUUUUUGAAUUGGCAGGCUUUAGCCUACAAAUGGGUCCCCCAAGUUUUCUAGAUAACAUCCUGCUCUCUGCAGGUGGAAUUCUCGGGUGCCAA | 0.361 |
| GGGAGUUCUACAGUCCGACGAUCACUGGUGAGCGUUGGAACCUUGUCGUCUGGCUCCGAGCCUCUGCUGUGCGCAACAGCCUCUGUCCCAUGUGCUGCCGUGAGCCCGACCUGGUGGACGAUGAGGGCUUCGGUGGAAUUCUCGGGUGCCAA | 0.337 |
| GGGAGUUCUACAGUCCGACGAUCAAUUUAUGUUAAAGUAUUAACCCUUUGUCACAAAGGAAUGGUAAUGUGAUUGGCUGCCUGUUAGCCCAUCGACUAUUCCCGUCACGGUAGUCCUUACCUCUGUCGGCAGCUGGAAUUCUCGGGUGCCAA | 0.285 |
| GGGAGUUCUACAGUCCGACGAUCCCCAAGCCCUGCAUCCCCACAUGCGGGGCAGAGGCCCUUCUCUCCGCCAAAUGUCUACACAGUAUACACAGGACAUCGUUGCUGCCGCCGUGACUGGUUUUCUGUCCCCAUGGAAUUCUCGGGUGCCAA | 0.675 |
| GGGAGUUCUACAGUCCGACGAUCACAUCUGCUCAUUGUCUAAUGCCUGACCCCCAUUCAUUUAGUUAUUCAAUAUAGACUUGCCCAAUUAGCCCAUCGAGCCUCCCUAGGCUUCCCGAUUCUCAGGUCUUCUCUGGAAUUCUCGGGUGCCAA | 0.649 |
| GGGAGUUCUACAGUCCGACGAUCCAGACAGGAGCCCAGGAAAGCCGCAGAGGAGCUGAAGCAAGGCAGUCCUCACUAAGCUAGAUAAUGUCUGUGACGGAAGUAAGAAAGUCCUCCUCUGGGAUACGGCACUUUGGAAUUCUCGGGUGCCAA | 0.472 |
| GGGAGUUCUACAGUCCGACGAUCAUACUGACUCCAGGUGUAGUUACAUCUCAGUGCUGUCUUGAGUAUAUAUUUUAUCUCUUAUACCUGUAUCUCCCAACUAGAAACAGCUCCAGUGUUUUUAAGAGAAUGUUUGGAAUUCUCGGGUGCCAA | 0.915 |

Study 4
Target: Interferon regulatory factor 5, full length, phosphomimetic (IRF5, Homo sapiens, UniProt Q13568-2, residues 1-514, K96S/S451D/S453D/S456D/S462D)
Technique: protein-binding microarray
Form: double-stranded DNA, one strand shown
Matrix: in vitro
Concentration: 250 nM
Notes: 60-bp whole probe
Together with: salmon DNA 0.4 mg/ml
Reference: random background probes
Direction: higher = stronger binding
Shared flanks, not repeated: GCCTAGCAC … GTCTTGATTCGCTTGACGCTGCTG
| Sequence | log fluorescence [z-score] |
| --- | --- |
| CTCTTGTTCTCTCTGGCCCTGTGCTAG | -0.0131 |
| TTAGGTTTCCTTCTCCTTTTGTGCTAG | 1.31 |
| TAAGGTTTCGGTATCGGTTAGTGCTAG | 10.8 |
| GAAGTTCTAAATATCTTTGTGTGCTAG | 0.0703 |
| TTAGGTTTCGGGTATCGGTCAGTGCTA | 9.41 |
| TTAGGACTGGGGTTTCGGTCAGTGCTA | 6.27 |
| TCAAGGTTTTCTCTGGTACTGTGCTAG | 0.3 |
| TTAGGTTCCGGTTTCGCTTAGTGCTAG | 6.41 |

Some of these lines once more (study 1):
| conditions | relative binding score |
| --- | --- |
| together with: (+)-ABA 0.032 µM | 16.8% |
| together with: (+)-ABA 58 µM | 14.1% |
| together with: (+)-ABA 1.4 µM | 11.9% |
| together with: (+)-ABA 710 µM | 46.9% |
